Assay results of several laboratories.
Each numbered part is a random draw from the data of one study; scales do not carry over between parts.

Sample 1
Target: Protein C-ets-1 (ETS1, Homo sapiens, UniProt P14921, residues 1-441, Y397A, full length assumed)
Method: protein-binding microarray
Form: double-stranded DNA, one strand shown
Medium: in vitro
Concentration: not given
Notes: k-mer, scored over probes, only values ≥0.25
Direction: higher = stronger binding
Quantity: E-score
Construct (chain): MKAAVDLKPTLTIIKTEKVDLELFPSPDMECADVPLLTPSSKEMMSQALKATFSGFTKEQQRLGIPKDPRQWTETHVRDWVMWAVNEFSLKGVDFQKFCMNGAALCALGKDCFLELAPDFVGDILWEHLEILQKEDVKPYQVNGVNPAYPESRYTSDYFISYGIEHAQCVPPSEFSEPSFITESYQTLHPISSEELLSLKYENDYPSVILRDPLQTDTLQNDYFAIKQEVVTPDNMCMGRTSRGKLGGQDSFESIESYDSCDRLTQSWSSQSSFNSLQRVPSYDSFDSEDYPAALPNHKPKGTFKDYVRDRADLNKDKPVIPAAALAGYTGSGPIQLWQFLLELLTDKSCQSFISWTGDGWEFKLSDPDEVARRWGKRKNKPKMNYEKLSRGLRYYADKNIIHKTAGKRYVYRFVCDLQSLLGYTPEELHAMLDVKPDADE
CATCCGGG: 0.282
CCGCCCCA: 0.35
ACGTTGAA: 0.277
GTGTACAA: 0.3

Sample 2
Target: Sal-like protein 4, full length isoform A (SALL4, Homo sapiens, UniProt Q9UJQ4, residues 1-1053)
Chain of UniProt Q9UJQ4 (whole entry, looked up): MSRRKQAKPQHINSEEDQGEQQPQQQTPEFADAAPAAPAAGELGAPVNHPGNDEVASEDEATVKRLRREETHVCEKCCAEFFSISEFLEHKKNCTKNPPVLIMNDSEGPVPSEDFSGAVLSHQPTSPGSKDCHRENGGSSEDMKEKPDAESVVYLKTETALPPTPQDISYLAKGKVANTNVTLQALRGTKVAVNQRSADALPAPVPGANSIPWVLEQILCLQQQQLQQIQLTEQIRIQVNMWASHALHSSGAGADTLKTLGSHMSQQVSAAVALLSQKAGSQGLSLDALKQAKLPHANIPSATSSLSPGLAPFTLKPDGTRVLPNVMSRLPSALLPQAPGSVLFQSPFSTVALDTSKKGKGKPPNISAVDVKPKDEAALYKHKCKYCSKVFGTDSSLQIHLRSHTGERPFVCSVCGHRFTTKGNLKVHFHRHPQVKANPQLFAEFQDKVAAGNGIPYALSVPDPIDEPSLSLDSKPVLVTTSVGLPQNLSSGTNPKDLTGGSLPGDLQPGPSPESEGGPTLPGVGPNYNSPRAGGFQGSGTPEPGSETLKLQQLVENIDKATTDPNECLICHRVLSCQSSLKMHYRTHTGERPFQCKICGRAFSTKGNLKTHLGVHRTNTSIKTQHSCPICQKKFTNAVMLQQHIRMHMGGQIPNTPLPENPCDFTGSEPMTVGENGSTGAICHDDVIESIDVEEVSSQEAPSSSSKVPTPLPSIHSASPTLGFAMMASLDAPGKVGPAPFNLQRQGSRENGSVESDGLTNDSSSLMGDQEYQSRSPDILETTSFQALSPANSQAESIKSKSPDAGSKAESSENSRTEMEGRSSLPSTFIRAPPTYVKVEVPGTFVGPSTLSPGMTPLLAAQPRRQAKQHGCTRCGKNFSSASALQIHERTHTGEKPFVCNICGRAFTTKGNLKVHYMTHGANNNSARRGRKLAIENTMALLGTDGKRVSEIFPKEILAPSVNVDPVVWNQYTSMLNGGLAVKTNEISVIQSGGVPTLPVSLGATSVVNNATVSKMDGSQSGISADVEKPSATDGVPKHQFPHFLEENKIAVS
Method: universal PBM
Form: double-stranded DNA, one strand shown
Medium: in vitro
Concentration: 600 nM
Notes: 8-mer, flanks averaged, mean of replicates
Direction: higher = stronger binding
Quantity: E-score
CTTTAAAC: 0.0826
GCAACTAC: 0.0717
CGTCTAAG: -0.137

Sample 3
Target: Interferon regulatory factor 5, full length, phosphomimetic (IRF5, Homo sapiens, UniProt Q13568-2, residues 1-514, K96S/S451D/S453D/S456D/S462D)
Method: protein-binding microarray
Form: double-stranded DNA, one strand shown
Medium: in vitro
Concentration: 250 nM
Notes: 60-bp whole probe
Together with: salmon DNA 0.4 mg/ml
Reference: random background probes
Direction: higher = stronger binding
Quantity: log fluorescence
GCCTAGCACGACGGACTGGGTTTTCGGGACGTGCTAGTCTTGATTCGCTTGACGCTGCTG: 0.514 z-score
GCCTAGCACTTAGGACTGCTTCTCCTATAGTGCTAGGTCTTGATTCGCTTGACGCTGCTG: -0.135 z-score
GCCTAGCACGAAGATTCCAGTTTCGAGACGTGCTAGGTCTTGATTCGCTTGACGCTGCTG: 6.04 z-score

Further values, each from its own experiment
PhoQ, residues 284 288 289 292 302 303 GNNTDL  fold induction (PhoP, residues 12 14 15 18 19 NYFTV (Escherichia coli, UniProt P23836); Sort-seq, refers to: YFP reporter; E. coli; PhoQ-PhoP variant library, together with: 10 µM Mg2+; reference: high Mg2+ state, higher = stronger signaling): 2.19

For quick reference, copied from above (further values, each from its own experiment):
PhoQ, residues 284 288 289 292 302 303 GNNTDL  fold induction (PhoP, residues 12 14 15 18 19 NYFTV (Escherichia coli, UniProt P23836); Sort-seq, refers to: YFP reporter; E. coli; PhoQ-PhoP variant library, together with: 10 µM Mg2+; reference: high Mg2+ state, higher = stronger signaling): 2.19
